Published values of several laboratories.
Each line is one published result; not all experiments were run side by side. ± gives the spread as reported.
Spike glycoprotein: Spike glycoprotein (Severe acute respiratory syndrome coronavirus 2, UniProt P0DTC2)
rep main protease: Replicase polyprotein 1ab, main protease (rep, Severe acute respiratory syndrome coronavirus 2, UniProt P0DTD1)

Molecule | target or system | test | system | conditions | scale | quantity | value
DAMGO | opioid receptor mouse | binding | CD-1 mouse brain |  |  | Ki | 0.0014 ± 0.00056 µM
COc1cc(O)c(CC=C(C)C)c2c1C(=O)CC(c1ccc(O)cc1)O2 (stereo not drawn) | Spike glycoprotein | binding, biolayer interferometry |  |  |  | Kd | 10.6 µM
CCC(CC)[C@H](NC(C)=O)[C@@H]1[C@H](O)[C@@H](C(=O)O)C[C@H]1N=C(N)N | Neuraminidase (Influenza A virus, UniProt G9HX50) | enzyme activity, inhibitor | swine influenza A virus, H3N2 |  |  | IC50 | 0.00014 ± 1e-05 µM
Cc1cc(O[C@@H]2O[C@H](CO)[C@@H](O)[C@H](O)[C@H]2O)c2c(c1)C(=O)c1cc(O)cc(O)c1C2=O | Spike glycoprotein | binding, biolayer interferometry |  |  |  | Kd | 37.9 µM
NCCNCCNCCN | Angiotensin-converting enzyme 2 (ACE2, Homo sapiens, UniProt Q9BYF1) |  |  |  |  | AC50 | 6.7 µM
bavachinin | Spike glycoprotein | binding |  |  |  | Kd | 11.8 µM
CS(=O)(=O)C=CCNC(=O)c1ccc2c(c1)NC(=O)CC2 | Polyprotein P1234, nsP2 protease domain (Chikungunya virus, UniProt Q5XXP4) | time-dependent inhibitor |  |  |  | Ki | 15 ± 2 µM
CNC(=O)[C@H](Cc1ccccc1)NC(=O)[C@H](CC(C)C)[C@H](CSc1cccs1)C(=O)NO | rep main protease | reporter gene (mKate2), inhibitor |  | 20 µM |  | inhibition | 0.192%
CSCC[C@H](NC(=O)[C@@H](N)CCC(=O)O)C(=O)N[C@@H](Cc1c[nH]cn1)C(=O)N[C@@H](CCC(N)=O)C(=O)N[C@@H](Cc1c[nH]c2ccccc12)C(=O)N[C@@H](CCCNC(=N)N)C(=O)N[C@@H](CCCNC(=N)N)C(=O)N[C@@H](Cc1c[nH]c2ccccc12)C(=O)O | Toxin B, glucosyltransferase domain (tcdB, Clostridioides difficile, UniProt Q9EXR0) |  |  |  |  | Ki | 2410 µM
Nc1ncnc2c1ccn2C1CCN(C(=O)c2ccc(S(=O)(=O)F)cc2)CC1 | Calmodulin-sensitive adenylate cyclase (cya, Bacillus anthracis, UniProt P40136) | cell-based activity, inhibitor |  |  |  | EC50 | 0.012 µM
CC(C)=CCc1cc2c(cc1O)O[C@H](c1ccc(O)cc1)CC2=O | Spike glycoprotein | binding, biolayer interferometry |  |  |  | Kd | 43.8 µM
CNC(=O)[C@@H](NC(=O)[C@H](CC(C)C)[C@H](O)C(=O)NO)C(C)(C)C | C2C12 |  |  | 10 µM, added: KL venom | baseline: venom alone | viability difference | 11.3%
Cn1cnc(Cn2c(=O)[nH]/c(=N\c3cc4cn(C)nc4cc3Cl)n(Cc3cc(F)c(F)cc3F)c2=O)n1 | Cytochrome P450 2C19 (CYP2C19, Homo sapiens, UniProt P33261) | inhibitor | human liver microsomes | 0 min preincubation, added: S-mephenytoin 60 µM |  | IC50 | > 100 µM
COc1ccc(/C=C/c2cc(O)cc(O)c2)cc1O | Spike glycoprotein | binding, BLI |  |  |  | Kd | 58.6 µM
Nc1ncnc2c([C@@H]3N[C@H](CO)[C@@H](O)[C@H]3O)c[nH]c12 | Marburg virus | viral replication | HeLa, Musoke | 400 µM |  | inhibition | 99%
CCC(C(=O)Nc1cc(NC2CCOCC2)ccc1C)n1cccc2nc(SCc3ccc(F)cc3)nc1-2 (stereo not drawn) | Replicase polyprotein 1ab, papain-like protease (rep, Middle East respiratory syndrome-related coronavirus, UniProt K9N7C7) | enzyme activity, inhibitor |  |  |  | IC50 | > 100 µM
CC(=O)c1ccc(NC2=C(Cl)C(=O)c3ccccc3C2=O)cc1 | rep main protease | viral replication, Gluc reporter | SARS-CoV-2 | 20 µM |  | inhibition | -6.73%
Cn1cnc(Cn2c(=O)[nH]/c(=N\c3cc4cn(C)nc4cc3Cl)n(Cc3cc(F)c(F)cc3F)c2=O)n1 |  |  | human, normal renal function | oral, 375 mg, single dose, geometric mean |  | mean residence time | 69 h
Cc1ccccc1NC(=O)C(C)n1c(SCc2ccc(F)cc2)nc2cccnc21 (stereo not drawn) | Replicase polyprotein 1ab, papain-like protease (rep, Severe acute respiratory syndrome-related coronavirus, UniProt P0C6X7) | enzyme activity |  |  |  | IC50 | > 20 µM
CSCC[C@H](N)C(=O)N[C@@H](CC(=O)O)C(=O)N[C@H](C(=O)N[C@@H](CCC(N)=O)C(=O)N[C@@H](Cc1c[nH]c2ccccc12)C(=O)N[C@@H](CCCNC(=N)N)C(=O)N[C@@H](CCCNC(=N)N)C(=O)N[C@@H](Cc1c[nH]c2ccccc12)C(=O)O)[C@@H](C)O | Toxin B (tcdB, Clostridioides difficile, UniProt P18177) | enzyme activity, inhibitor |  |  |  | Ki | 832 µM
CCC(C(=O)Nc1cc(NC2CCNCC2)ccc1C)n1cc(Br)cc2nc(SCc3ccc(F)cc3)nc1-2 (stereo not drawn) | Replicase polyprotein 1ab, papain-like protease (rep, Severe acute respiratory syndrome-related coronavirus, UniProt P0C6X7) | enzyme activity |  |  |  | IC50 | 0.056 ± 0.008 µM
CC(C)C[C@H](NC(=O)[C@@H](NC(=O)[C@@H](N)Cc1c[nH]cn1)[C@@H](C)O)C(=O)N[C@@H](CCC(=O)O)C(=O)N[C@@H](Cc1c[nH]c2ccccc12)C(=O)N[C@@H](CCCNC(=N)N)C(=O)N[C@@H](CCCNC(=N)N)C(=O)N[C@@H](Cc1c[nH]c2ccccc12)C(=O)O | Toxin B, glucosyltransferase domain (Clostridioides difficile, UniProt A0A9R0CDJ3) | glucosyltransferase activity, inhibitor, UDP-Glo glucosyltransferase luminescence |  | added: Rac1 and UDP-glucose |  | Ki | 188 µM
CCC(C(=O)Nc1ccccc1C)n1cccc2nc(SCc3cccc(F)c3)nc1-2 (stereo not drawn) | Replicase polyprotein 1ab, papain-like protease (rep, Middle East respiratory syndrome-related coronavirus, UniProt K9N7C7) | enzyme activity, inhibitor |  |  |  | IC50 | > 100 µM
C[C@@H]1O[C@@H](O[C@H]2C(=O)c3c(O)cc(O)cc3O[C@@H]2c2ccc(O)c(O)c2)[C@H](O)[C@H](O)[C@H]1O | Spike glycoprotein | binding, biolayer interferometry |  |  |  | Kd | 32.5 µM
CCC(C(=O)Nc1cc(NC2CNC2)ccc1C)n1cccc2nc(SCc3ccc(F)cc3)nc1-2 (stereo not drawn) | Replicase polyprotein 1ab, papain-like protease (rep, Middle East respiratory syndrome-related coronavirus, UniProt K9N7C7) | enzyme activity, inhibitor |  |  |  | IC50 | > 100 µM
CC[C@H](C)[C@H](NC(=O)[C@H](CC(C)C)NC(=O)[C@H](Cc1c[nH]c2ccccc12)NC(=O)[C@H](CCC(N)=O)NC(=O)[C@@H](NC(=O)[C@H](Cc1ccccc1)NC(=O)[C@H](C)NC(=O)[C@H](CCCCNC(=O)COCCOCCNC(=O)COCCOCCNC(=O)CC[C@H](NC(=O)CCCCCCCCCCCCCCCCCCC(=O)O)C(=O)O)NC(=O)[C@H](CCC(N)=O)NC(=O)[C@H](C)NC(=O)[C@@H](NC(=O)[C@H](CCCCN)NC(=O)[C@H](CC(=O)O)NC(=O)[C@H](CC(C)C)NC(=O)C(C)(C)NC(=O)[C@@H](NC(=O)[C@H](CO)NC(=O)[C@H](Cc1ccc(O)cc1)NC(=O)[C@H](CC(=O)O)NC(=O)[C@H](CO)NC(=O)[C@@H](NC(=O)[C@H](Cc1ccccc1)NC(=O)[C@@H](NC(=O)CNC(=O)[C@H](CCC(=O)O)NC(=O)C(C)(C)NC(=O)[C@@H](N)Cc1ccc(O)cc1)[C@@H](C)O)[C@@H](C)O)[C@@H](C)CC)[C@@H](C)CC)C(C)C)C(=O)N[C@@H](C)C(=O)NCC(=O)NCC(=O)N1CCC[C@H]1C(=O)N[C@@H](CO)C(=O)N[C@@H](CO)C(=O)NCC(=O)N[C@@H](C)C(=O)N1CCC[C@H]1C(=O)N1CCC[C@H]1C(=O)N1CCC[C@H]1C(=O)N[C@@H](CO)C(N)=O |  |  | healthy human | 5.0 mg, single ascending dose |  | severe hypoglycaemia | 0%
C=C1C[C@@]23CC[C@H]4[C@@](C)(CCC[C@@]4(C)C(=O)O[C@@H]4O[C@H](CO)[C@@H](O)[C@H](O)[C@H]4O)[C@@H]2CC[C@]1(O[C@@H]1O[C@H](CO)[C@@H](O)[C@H](O)[C@H]1O)C3 | Spike glycoprotein | binding, biolayer interferometry |  |  |  | Kd | 1.21 µM
CCC(C(=O)Nc1ccccc1C)n1cccc2nc(S)nc1-2 (stereo not drawn) | Replicase polyprotein 1ab, papain-like protease (rep, Middle East respiratory syndrome-related coronavirus, UniProt K9N7C7) | enzyme activity, inhibitor |  |  |  | IC50 | > 100 µM
abamectin | Spike glycoprotein | biolayer interferometry |  |  |  | Kd | 24.1 µM
CCC(C(=O)Nc1cc(NC2CCOC2)ccc1C)n1cc(Cl)cc2nc(SCc3ccc(F)cc3)nc1-2 (stereo not drawn) | Replicase polyprotein 1ab, papain-like protease (rep, Middle East respiratory syndrome-related coronavirus, UniProt K9N7C7) | enzyme activity, inhibitor |  |  |  | IC50 | > 100 µM

A few entries again:
Molecule | target or system | test | system | conditions | scale | quantity | value
CNC(=O)[C@H](Cc1ccccc1)NC(=O)[C@H](CC(C)C)[C@H](CSc1cccs1)C(=O)NO | rep main protease | reporter gene (mKate2), inhibitor |  | 20 µM |  | inhibition | 0.192%
CSCC[C@H](NC(=O)[C@@H](N)CCC(=O)O)C(=O)N[C@@H](Cc1c[nH]cn1)C(=O)N[C@@H](CCC(N)=O)C(=O)N[C@@H](Cc1c[nH]c2ccccc12)C(=O)N[C@@H](CCCNC(=N)N)C(=O)N[C@@H](CCCNC(=N)N)C(=O)N[C@@H](Cc1c[nH]c2ccccc12)C(=O)O | Toxin B, glucosyltransferase domain (tcdB, Clostridioides difficile, UniProt Q9EXR0) |  |  |  |  | Ki | 2410 µM
Nc1ncnc2c1ccn2C1CCN(C(=O)c2ccc(S(=O)(=O)F)cc2)CC1 | Calmodulin-sensitive adenylate cyclase (cya, Bacillus anthracis, UniProt P40136) | cell-based activity, inhibitor |  |  |  | EC50 | 0.012 µM
CC(C)=CCc1cc2c(cc1O)O[C@H](c1ccc(O)cc1)CC2=O | Spike glycoprotein | binding, biolayer interferometry |  |  |  | Kd | 43.8 µM
